Experimental data from different studies.
Lines come from different studies, so protocols differ.
Matrix: plasma

`c1ccc(C2(CCNC3CCC4(SCCS4)c4ccccc43)CCOC3(CCCC3)C2)nc1` (stereo not drawn) gave a half-life of 0.76 h (Sprague-Dawley rat; intravenous, 0.5 mg/kg).
The half-life of `CCOC(=O)[C@@H]1Cc2c(cc([N+](=O)[O-])cc2[N+](=O)[O-])[C@H](O)[C@]12C(=O)Nc1ccc(Br)cc12` is reported as 1.85 h (Sprague-Dawley rat; intravenous, 7.5 mg/kg).
For `C[C@]12CC[C@H](OC(=O)NC3CCNCC3)C[C@H]1CC[C@@H]1[C@@H]2CC[C@]2(C)[C@@H](c3ccc(=O)oc3)CC[C@]12O`, the half-life was 4.59 h (male Sprague-Dawley rat; intravenous, 5 mg/kg, single dose).
The half-life of `CC[C@H](C)[C@H](NC(=O)[C@H](CCCN)NC(=O)[C@H](CC(N)=O)NC(=O)[C@H](Cc1c[nH]c2ccccc12)NC(=O)[C@H](Cc1ccccc1)NC(=O)[C@H](CCCN)NC(=O)[C@H](CCCCNC(=N)N)NC(=O)[C@H](CC(C)C)NC(=O)[C@H](Cc1c[nH]c2ccccc12)NC(=O)[C@H](CCCN)NC(=O)[C@H](CCCCNC(=N)N)NC(=O)[C@H](CC(C)C)NC(=O)CNC(C)=O)C(=O)N[C@@H](CCCN)C(=O)N[C@@H](CCCCNC(=N)N)C(N)=O` is reported as 0.66 h (male Sprague-Dawley rat; intravenous, 5 mg/kg).
With `CCN(C)C(=O)Oc1ccccc1/C=C1\Cc2cc(OC)c(OC)cc2C1=O` the half-life was 5.07 h (male Sprague-Dawley rat; oral, 100 mg/kg, single dose).
The half-life of `Cc1cc(Nc2nc(C[C@@]3(C(=O)O)CCN(Cc4cccc(Cl)c4F)[C@H](C)C3)cc(C)c2F)n[nH]1` is reported as 5.1 h (Sprague-Dawley rat; intravenous, 0.5 mg/kg, single dose).
With `CCCC[C@@H]1NC(=O)[C@H](Cc2ccc(O)cc2)NC(=O)[C@@H]2CCCN2C(=O)[C@H](CC(=O)O)NC(=O)[C@H](C)NC(=O)[C@H](Cc2ccccc2)NC(=O)[C@@H]2CSCCC(=O)N3CN(CN(C3)C(=O)CCSC[C@@H](C(=O)N[C@@H](C)C(N)=O)NC1=O)C(=O)CCSC[C@H](NC(C)=O)C(=O)N[C@@H](CC(C)(C)C)C(=O)N1CCC[C@H]1C(=O)N[C@@H](CCC(=O)O)C(=O)N[C@H](CCCCNC(=O)CCc1cn(CCOCCOCCOCCN(CCOCCOCCOCCC(=O)N[C@H]3CSCCC(=O)N4CN5CN(C4)C(=O)CCSC[C@H](NC(=O)[C@@H](CCC(=O)O)NC(=O)[C@H](Cc4cccc6ccccc46)NC(=O)[C@@H]4CCCN4C3=O)C(=O)N[C@@H](CCSC)C(=O)N[C@@H](CCCCNC(=N)N)C(=O)N[C@@H](CCC(=O)O)C(=O)N[C@@H](Cc3c[nH]c4ccccc34)C(=O)N[C@@H](CO)C(=O)N[C@@H]([C@@H](C)O)C(=O)N3CCC[C@H]3C(=O)N3C[C@H](O)C[C@H]3C(=O)N[C@@H](Cc3c[nH]c4ccccc34)C(=O)N[C@H](C(N)=O)CSCCC5=O)CCOCCOCCOCCn3cc(CCC(=O)NCCCC[C@H]4NC(=O)[C@H](CCC(=O)O)NC(=O)[C@@H]5CCCN5C(=O)[C@H](CC(C)(C)C)NC(=O)[C@@H](NC(C)=O)CSCCC(=O)N5CN6CN(C5)C(=O)CCSC[C@H](NC(=O)[C@H](Cc5ccc(O)cc5)NC(=O)[C@@H]5CCCN5C4=O)C(=O)N[C@@H](Cc4ccccc4)C(=O)N[C@@H](C)C(=O)N[C@@H](CC(=O)O)C(=O)N4CCC[C@H]4C(=O)N[C@@H](Cc4ccc(O)cc4)C(=O)N[C@@H](CCCC)C(=O)N[C@H](C(=O)N[C@@H](C)C(N)=O)CSCCC6=O)nn3)nn1)C(=O)N1CCC[C@H]1C(=O)N[C@@H](Cc1ccc(O)cc1)C(=O)N2` the half-life was 0.37 h (rat; intravenous, 2 mg/kg).
The half-life of `COc1ccc(-n2cc(C(=O)N3C[C@]4(OC(=O)c5ccccc5NC(C)=O)CC[C@H](OC)[C@@]56[C@@H]4C[C@@H]([C@@H]35)[C@@]3(O)C[C@H](OC)[C@H]4C[C@@H]6[C@]3(O)[C@H]4OC)nn2)cc1` is reported as 0.385 h (Sprague-Dawley rat; intravenous, 2 mg/kg).
`CCCCCCCCCCCCCC(=O)N[C@H](CCN)C(=O)N[C@@H]1C(=O)N[C@@H](CCN)C(=O)N[C@@H](CC(C)C)C(=O)N[C@@H](CCN)C(=O)N[C@H](Cc2ccccc2)C(=O)N[C@@H](CC(C)C)C(=O)N[C@@H](CCN)C(=O)N[C@H](CCN)C(=O)N[C@@H](C(C)C)C(=O)N[C@@H](CC(=O)O)C(=O)O[C@@H]1C` gave a half-life of 20.2 h (rat; subcutaneous, 10 mg/kg).
For `C/C=C/C=C/C/C=C/CCCCCCCc1cccc(O)c1O`, the half-life was 1.1 h (male Wistar rat; intravenous, 20 mg/kg).
`CCCC[C@@H]1NC(=O)[C@H](Cc2ccc(O)cc2)NC(=O)[C@@H]2CCCN2C(=O)[C@H](CC(=O)O)NC(=O)[C@H](C)NC(=O)[C@H](Cc2ccccc2)NC(=O)[C@@H]2CSCCC(=O)N3CN(CN(C3)C(=O)CCSC[C@@H](C(=O)N[C@@H](C)C(N)=O)NC1=O)C(=O)CCSC[C@H](NC(C)=O)C(=O)N[C@@H](CC(C)(C)C)C(=O)N1CCC[C@H]1C(=O)N[C@@H](CCC(=O)O)C(=O)N[C@H](CCCCNC(=O)CCc1cn(CCOCCOCCOCCN(CCOCCOCCOCCC(=O)N[C@H]3CSCCC(=O)N4CN5CN(C4)C(=O)CCSC[C@H](NC(=O)[C@@H](CC(=O)O)NC(=O)[C@H](Cc4cccc6ccccc46)NC(=O)[C@@H]4CCCN4C3=O)C(=O)N[C@@H](CCSC)C(=O)N[C@@H](CCCCNC(=N)N)C(=O)N[C@@H](CC(=O)O)C(=O)N[C@@H](Cc3c[nH]c4ccccc34)C(=O)N[C@@H](CO)C(=O)N[C@@H]([C@@H](C)O)C(=O)N3CCC[C@H]3C(=O)N3C[C@H](O)C[C@H]3C(=O)N[C@@H](Cc3c[nH]c4ccccc34)C(=O)N[C@H](C(N)=O)CSCCC5=O)CCOCCOCCOCCn3cc(CCC(=O)NCCCC[C@H]4NC(=O)[C@H](CCC(=O)O)NC(=O)[C@@H]5CCCN5C(=O)[C@H](CC(C)(C)C)NC(=O)[C@@H](NC(C)=O)CSCCC(=O)N5CN6CN(C5)C(=O)CCSC[C@H](NC(=O)[C@H](Cc5ccc(O)cc5)NC(=O)[C@@H]5CCCN5C4=O)C(=O)N[C@@H](Cc4ccccc4)C(=O)N[C@@H](C)C(=O)N[C@@H](CC(=O)O)C(=O)N4CCC[C@H]4C(=O)N[C@@H](Cc4ccc(O)cc4)C(=O)N[C@@H](CCCC)C(=O)N[C@H](C(=O)N[C@@H](C)C(N)=O)CSCCC6=O)nn3)nn1)C(=O)N1CCC[C@H]1C(=O)N[C@@H](Cc1ccc(O)cc1)C(=O)N2` gave a half-life of 3.6 h (rat; intravenous, 2 mg/kg).
The half-life of `C[C@@H]1CC[C@H]2[C@@H](C)CO[C@@H]3O[C@@]4(C)CC[C@@H]1[C@]32OO4` is reported as 5.22 h (male Sprague-Dawley rat; oral, 100 mg/kg).
For `CCCCCCCC[C@@H]1NC(=O)[C@@H](Cc2ccccc2)NC(=O)[C@H](CCN)NC(=O)[C@@H](NC(=O)[C@H](CCN)NC(=O)[C@@H](NC(=O)[C@H](CCN)NC(=O)c2ccc(-c3ccccc3)cc2)[C@@H](C)O)CCNC(=O)[C@H]([C@@H](C)O)NC(=O)[C@H](CCN)NC(=O)[C@H](CCN)NC1=O`, the half-life was 2.77 to 3.4 h (rat; intravenous, single dose).
With `CC(C)C[C@@H](N)C(=O)NCC(=O)N[C@H](C)C(=O)N[C@H](CO)C(=O)N[C@H](Cc1c[nH]c2ccccc12)C(=O)N[C@H](Cc1c[nH]cn1)C(=O)N[C@H](CCCNC(=N)N)C(=O)N1CCC[C@@H]1C(=O)N[C@H](CC(=O)O)C(=O)N[C@H](CCCCN)C(=O)N[C@H](CS)C(=O)N[C@H](CS)C(=O)N[C@H](CC(C)C)C(=O)NCC(=O)N[C@H](Cc1ccc(O)cc1)C(=O)N[C@H](CCC(N)=O)C(=O)N[C@H](CCCCN)C(=O)N[C@H](CCCNC(=N)N)C(=O)N1CCC[C@@H]1C(=O)N[C@H](CC(C)C)C(=O)N1CCC[C@@H]1C(N)=O` the half-life was 8.7 h (male Sprague-Dawley rat; subcutaneous, 10 mg/kg, single dose).
`C[C@@](O)(C(F)F)[C@H](NC(=O)c1ccc(C#CC#CC2CC2)cc1)C(=O)NO` has a half-life of 1.6 h (rat; intravenous, 40 mg/kg).

For quick reference, copied from above:
`c1ccc(C2(CCNC3CCC4(SCCS4)c4ccccc43)CCOC3(CCCC3)C2)nc1` (stereo not drawn) gave a half-life of 0.76 h (Sprague-Dawley rat; intravenous, 0.5 mg/kg).
The half-life of `CCOC(=O)[C@@H]1Cc2c(cc([N+](=O)[O-])cc2[N+](=O)[O-])[C@H](O)[C@]12C(=O)Nc1ccc(Br)cc12` is reported as 1.85 h (Sprague-Dawley rat; intravenous, 7.5 mg/kg).
